Experimental data from different studies.
Each line is one published result; not all experiments were run side by side. “And” joins repeats or separate records; there may be more than shown. Numbers after ± are the reported error.
spsB: Signal peptidase IB (spsB, Staphylococcus aureus, UniProt Q5HHB9)
CAMKK2: Calcium/calmodulin-dependent protein kinase kinase 2 (CAMKK2, Homo sapiens, UniProt Q96RR4)
TRPM8: Transient receptor potential cation channel subfamily M member 8 (TRPM8, Homo sapiens, UniProt Q7Z2W7)

target | assay | test system | conditions | how to read | remaining activity | SMILES
spsB | peptidase activity, activator, FRET peptide cleavage | Staphylococcus aureus, membranes | 10 µM | relative to: DMSO | 132% | O=C(Nc1ccc(Nc2ccccc2)cc1)Nc1ccc(Cl)c(C(F)(F)F)c1
MYLK4 (Homo sapiens, UniProt Q86YV6) | enzyme activity | – | 10 µM | relative to: control | 8.5% | COc1cc(N2CCN(C)CC2)ccc1Nc1nc(N)n(C(=S)NCc2c(Cl)cccc2Cl)n1
ALK4(h) | kinase activity | – | 1 µM | – | 115% | O=C(O)c1ccc(Nc2ncc3c(n2)-c2ccc(Cl)cc2C(c2c(F)cccc2F)=NC3)cc1
Potassium voltage-gated channel subfamily KQT member 1, with KCNE1 (KCNQ1, Homo sapiens, UniProt P51787) | IKs current, patch clamp | HEK293 | 10 µM | relative to: pre-drug current | 96.6% | CCN(CCO)CCCC(C)Nc1ccnc2cc(Cl)ccc12 (stereo not shown)
Insulin-like growth factor-binding protein 5 (Homo sapiens, UniProt P24593) | – | – | 10 µM | – | 21.8% | C=CC(=O)N1CCC[C@@H](n2nc(-c3ccc(Oc4ccccc4)cc3)c3c(N)ncnc32)C1
CAMKK2 | kinase activity, inhibitor, HotSpot radiometric | – | 100 nM, together with: ATP 10 µM | – | 76.9 ± 1.7% | C=CC(=O)N1CCC([C@@H]2CCNc3c(C(N)=O)c(-c4ccc(Oc5ccccc5)cc4)nn32)CC1
MAP3K12 (Homo sapiens, UniProt Q12852) | enzyme activity | – | 10 µM | – | 90% | O=C(NC1CCC1)c1ccc2nc(-c3cccc(NS(=O)(=O)NCCN4CCCCC4)c3)cn2c1
LCK (Homo sapiens, UniProt P06239) | kinase activity, inhibitor | – | concentration not given | relative to: control | 89% | C=CC(=O)N1CCCN(C(=O)c2cc(Sc3cnc(NC(=O)C4CC4)s3)c(C)cc2OC)C[C@H]1C
TRPM8 | antagonist | HEK293 | 5 µM | relative to: control | 80.8 ± 12.5% | c1ccc2c(-c3ccncc3)c[nH]c2c1
TNIK (Homo sapiens, UniProt Q9UKE5) | kinase activity, inhibitor, HotSpot radiometric | – | 1000 nM, together with: ATP at Km | – | 64.4 ± 2.8% | COc1ccc(F)cc1C(=O)NCc1ccc(-c2nn([C@@H](C)C(F)(F)F)c(N)c2C(N)=O)cc1
spsB | peptidase activity, activator, FRET peptide cleavage | Staphylococcus aureus, membranes | 50 µM | relative to: DMSO | 239% | O=C(Nc1cccc(C(F)(F)F)c1)Nc1ccc2c(c1)OC(F)(F)O2
TRPM8 | antagonist | HEK293 | 5 µM | relative to: control | 84.8 ± 2.64% | COc1ccc(CNc2nc(N(CCO)CCO)nc3c2ncn3C(C)C)cc1
MAP2K2 | kinase activity | – | 1 µM | – | 102% | COc1cc(Nc2ncc3c(n2)-c2ccc(Cl)cc2C(c2c(F)cccc2OC)=NC3)ccc1C(=O)O
spsB | peptidase activity, activator, FRET peptide cleavage | Staphylococcus aureus, membranes | 100 µM | relative to: DMSO | 154% | CCCCNC(=O)c1ccc(NC(=O)Nc2ccc(Cl)c(C(F)(F)F)c2)cc1
Peroxidasin homolog (PXDN, Homo sapiens, UniProt Q92626) | enzyme activity, inhibitor, Amplex UltraRed | – | 60 µM | relative to: control | 7.92% and 8.76% | NC/C(=C\F)COc1cccc(Cn2c(=S)[nH]c(=O)c3[nH]cnc32)c1
TRPM8 | antagonist | HEK293 | 5 µM | relative to: control | 91.7 ± 4.41% | O=C1NC(=O)c2cc(Nc3ccc(F)cc3)c(Nc3ccc(F)cc3)cc21
spsB | peptidase activity, activator, FRET peptide cleavage | Staphylococcus aureus, membranes | 50 µM | relative to: DMSO | 128% | O=C(Nc1ccc(N2CCOCC2)cc1)Nc1ccc(Cl)c(C(F)(F)F)c1
TRPM8 | antagonist | HEK293 | 5 µM | relative to: control | 88 ± 7.11% | CN(C)c1ccc(C=C2C(=O)Nc3ccccc32)cc1
ACVR2A (Homo sapiens, UniProt P27037) | kinase activity | – | 1 µM, human enzyme, together with: ATP 10 µM | relative to: DMSO control | 54% | COc1cc(-c2cncc3c2CN(C)Cc2cc(N4CCNCC4)ccc2-3)cc(OC)c1OC

target | assay | test system | conditions | how to read | remaining activity | SMILES
spsB | peptidase activity, activator, FRET peptide cleavage | Staphylococcus aureus, membranes | 50 µM | relative to: DMSO | 179% | CCc1ccc(NC(=O)Nc2ccc(Cl)c(C(F)(F)F)c2)cc1
ROCK1 (Homo sapiens, UniProt Q13464) | enzyme activity | – | 10 µM | relative to: control | 9.6% | COc1cc(N2CCN(C)CC2)ccc1Nc1nc(N)n(C(=O)NCc2ccccc2S(=O)(=O)C(C)C)n1
spsB | peptidase activity, activator, FRET peptide cleavage | Staphylococcus aureus, membranes | 100 µM | relative to: DMSO | 119% | O=C(Nc1ccc2c(c1)OCCO2)Nc1ccc(Cl)c(C(F)(F)F)c1
TRPM8 | antagonist | HEK293 | 5 µM | relative to: control | 99.7 ± 1.31% | CCCC(=O)Oc1ccc2[nH]c(C(=O)c3cc4ccccc4[nH]3)cc2c1
Rhomboid protease AarA (Providencia stuartii, UniProt P46116) | substrate cleavage, gel-based | – | 100 µM | relative to: DMSO | 37% | O=c1oc(Cl)c(Cl)c2ccccc12
CAMKK2 | kinase activity, inhibitor, HotSpot radiometric | – | 100 nM, together with: ATP 10 µM | – | 102.9 ± 0.8% | CC#CC(=O)N1CCC[C@H]1c1nc(-c2ccc(C(=O)Nc3ccccn3)cc2)c2c(N)nccn12
spsB | peptidase activity, activator, FRET peptide cleavage | Staphylococcus aureus, membranes | 100 µM | relative to: DMSO | 147% | O=C(Nc1ccc(Cl)c(C(F)(F)F)c1)Nc1ccc2ccccc2c1
FLT3 (Homo sapiens, UniProt P36888, D835Y) | kinase activity | – | 0.03 µM | relative to: control | 93% | Cc1cc(Nc2cc(N3CCN(C)CC3)nc(Sc3ccc(NC(=O)C4CC4)cc3)n2)[nH]n1
PRKCG (Homo sapiens, UniProt P05129) | kinase activity | – | 10 µM, together with: 10 µM ATP | – | 97% | COc1cc(F)ccc1-c1ncnc(Nc2cccc(C[S@](C)(=N)=O)c2)n1
TRPM8 | antagonist | HEK293 | 5 µM | relative to: control | 92.1 ± 7.43% | O=C(NC(NC(=S)Nc1ccc(F)c([N+](=O)[O-])c1)C(Cl)(Cl)Cl)C(c1ccccc1)c1ccccc1 (stereo not shown)
CXCR4 (Homo sapiens, UniProt P61073) | arrestin recruitment, antagonist, DiscoverX arrestin | – | 30 µM | relative to: untreated | 0.2% and 0.04% | Cc1noc(C)c1CN(C(=O)CCc1nc(Cc2ccccc2)no1)c1ccccc1
MAP4K2 (Homo sapiens, UniProt Q12851) | enzyme activity | – | 10 µM | – | 53% | O=C1NC(=O)/C(=C/c2ccc(-c3ccc(F)cc3O)o2)S1
PIP5K1C (Homo sapiens, UniProt O60331) | ADP-Glo | – | 1.52 nM | relative to: DMSO | 103% | CC(C)C(=O)Nc1n[nH]c2cc(-c3cccc(NS(=O)(=O)C4CC4)c3)ccc12
TRPM8 | antagonist | HEK293 | 5 µM | relative to: control | 101 ± 8.05% | CC(C)(C)n1nc(Cc2cccc3ccccc23)c2c(N)ncnc21
FLT3 (Homo sapiens, UniProt P36888) | kinase activity, inhibitor | – | 1 µM | relative to: untreated control | 87% | CNc1ncc2c(/C=C/C(=O)N3CCC(OC)CC3)nn(Cc3cccc(C(F)(F)F)c3)c2n1
TRPM8 | antagonist | HEK293 | 5 µM | relative to: control | 113 ± 6.08% | c1ccc(-c2n[nH]c3c2oc2ccccc23)cc1
spsB | peptidase activity, activator, FRET peptide cleavage | Staphylococcus aureus, membranes | 10 µM | relative to: DMSO | 100% | CNC(=O)c1cc(Oc2ccc(N(C)C(=O)Nc3ccc(Cl)c(C(F)(F)F)c3)cc2)ccn1
AKT2 (Homo sapiens, UniProt P31751) | kinase activity, inhibitor, SelectScreen kinase profiling | – | 1 µM | relative to: control | 103% | c1cnc2ccc(Nc3nc(NC4CC4)c4nc[nH]c4n3)cc2c1

Repeated from above:
target | assay | test system | conditions | how to read | remaining activity | SMILES
ALK4(h) | kinase activity | – | 1 µM | – | 115% | O=C(O)c1ccc(Nc2ncc3c(n2)-c2ccc(Cl)cc2C(c2c(F)cccc2F)=NC3)cc1
MAP2K2 | kinase activity | – | 1 µM | – | 102% | COc1cc(Nc2ncc3c(n2)-c2ccc(Cl)cc2C(c2c(F)cccc2OC)=NC3)ccc1C(=O)O
Rhomboid protease AarA (Providencia stuartii, UniProt P46116) | substrate cleavage, gel-based | – | 100 µM | relative to: DMSO | 37% | O=c1oc(Cl)c(Cl)c2ccccc12
spsB | peptidase activity, activator, FRET peptide cleavage | Staphylococcus aureus, membranes | 10 µM | relative to: DMSO | 100% | CNC(=O)c1cc(Oc2ccc(N(C)C(=O)Nc3ccc(Cl)c(C(F)(F)F)c3)cc2)ccn1
PRKCG (Homo sapiens, UniProt P05129) | kinase activity | – | 10 µM, together with: 10 µM ATP | – | 97% | COc1cc(F)ccc1-c1ncnc(Nc2cccc(C[S@](C)(=N)=O)c2)n1
